Experimental data pooled from the literature.
Each numbered part is a random draw from the data of one study; scales do not carry over between parts. Changes are numbered by the printed parent chain.

Series 1 — target: CCND3, cyclin fold, Cln2 fusion (human); method: yeast growth competition, sequencing; medium: yeast; notes: weak parent motif; baseline: not given; direction: higher = stronger binding
Parent: E2F2 docking peptide (human); LPAKRKLDLEGIG; partner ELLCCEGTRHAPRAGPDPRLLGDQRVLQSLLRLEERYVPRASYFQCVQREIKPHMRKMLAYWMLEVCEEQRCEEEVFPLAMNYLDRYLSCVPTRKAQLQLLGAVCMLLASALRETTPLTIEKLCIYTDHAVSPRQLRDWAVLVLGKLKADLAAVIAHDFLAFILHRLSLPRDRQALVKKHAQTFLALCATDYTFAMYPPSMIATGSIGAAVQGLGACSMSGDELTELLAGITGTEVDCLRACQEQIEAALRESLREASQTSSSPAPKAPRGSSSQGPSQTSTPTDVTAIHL
`LPAKKKLDFEGIG [R5K L9F]`: “normalised enrichment score” 0.465.
`LPAKRKLDLEAIG [G11A]` — result for “normalised enrichment score”: 0.0352.
For `LPAKAKLDLEGIG [R5A]`, “normalised enrichment score” read 0.162.
`LPAKRKLDFEGIG [L9F]` — result for “normalised enrichment score”: 0.476.
`LPAKRKADLEGIG [L7A]` — result for “normalised enrichment score”: 0.0234.
Under “normalised enrichment score”, `LPAKAKADLEGIG [R5A L7A]` is recorded as 0.201.
Under “normalised enrichment score”, `APAKRKLDLEGIG [L1A]` is recorded as 0.0946.
Under “normalised enrichment score”, `LPAKRKLDLAGIG [E10A]` is recorded as 0.109.
Under “normalised enrichment score”, `LPAARKLDLEGIG [K4A]` is recorded as 0.227.

Series 2 — method: RNA Bind-n-Seq; form: RNA; medium: in vitro; tested at: 365 nM; baseline: no-protein control; direction: higher = stronger binding
Target: RNA binding protein fox-1 homolog 2, RRM domain, GST-SBP tag (RBFOX2, Homo sapiens, UniProt O43251-10, residues 100-194)
Notes: natural RNA segment, single round, ends assumed
Construct (chain): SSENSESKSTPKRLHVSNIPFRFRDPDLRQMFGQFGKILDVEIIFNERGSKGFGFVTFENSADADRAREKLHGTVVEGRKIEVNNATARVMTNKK
Under “RBNS enrichment (R)”, `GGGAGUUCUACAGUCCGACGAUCCCUGCCUAUGAGUCCAUCAUCAAGGCAUUCCCAGAUUCCUGGUAGGGUGGCUUUUGGUUUUUGUUUCUUUCUUGUCUUGUCUUUUAUUGAAAGGAAAUCAAAAAUAGGCUUGGAAUUCUCGGGUGCCAA` is recorded as 2.35.
For `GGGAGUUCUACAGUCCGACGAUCACUGUGCUGGGGUUUGUUGUGAUGGCCACUCGGUGACCUGGCGGUCCCUACGCAAUAGCAGCUGCCUGUGGGGAAGAAGGGCUGCCCAGCCAGCUGGUUCUCCCGGGACAUGGAAUUCUCGGGUGCCAA`, “RBNS enrichment (R)” read 0.378.
Under “RBNS enrichment (R)”, `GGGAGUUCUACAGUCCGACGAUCAAGUCUUUGUUUUUGAAAAACAAAAAUCAAAAACAGUAACUAUUUUAUAUGGAAAUGUGUCUUGAUAAUAUUACCUAUUAAAUGUGUAUUUAUAGUCCCUCCUAUCAAACUGGAAUUCUCGGGUGCCAA` is recorded as 0.498.
`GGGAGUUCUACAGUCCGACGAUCCGACUCACGCCUUAAAGCCACACUUUUUAUUCUCUCCAGGAACCUGCUAUUGAUUAGGUUAUACCUGAGGUACUUAAAAUAUGCAGUAGAAUUAAUGUCUUACUAAAGUGUGGAAUUCUCGGGUGCCAA`: “RBNS enrichment (R)” 0.336.
Under “RBNS enrichment (R)”, `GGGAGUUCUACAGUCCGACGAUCUCUGUUCACAGUUUCUGUGUCUUUGGGUUCCUCCUUUUUCCAAGAGAAAAGGAUGUGACUGCCCAUCCUAGGUAUACUGGCUGUCUCCCUCAGUGGAGAAGAUGAGAAGAUGGAAUUCUCGGGUGCCAA` is recorded as 0.239.
For `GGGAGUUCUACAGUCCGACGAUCCUCAAGCAUUUUCACUUUGUUUCUUACAUGUGUACUUUUUUGUUUACUUGUGAAAAUGGCCAUCUUUAAGCAUAUUUAUUUUCUGCCACUUUAUUUAAAGGCAAGCAAUAUGGAAUUCUCGGGUGCCAA`, “RBNS enrichment (R)” read 1.04.
`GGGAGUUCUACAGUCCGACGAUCUGCAGCUUGGAGAGCAAAGGCACUUCCUCCCACGACCUUACUGCAGUAACCAUACCGAUCAAAUUCCCAGGGACAUUCUGUCAUUGCAGUAGCUCAGACCUGUCUUUUCUUGGAAUUCUCGGGUGCCAA` — result for “RBNS enrichment (R)”: 0.407.
`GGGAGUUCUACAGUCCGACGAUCACAGAAGAAUAAAAUUCUUUGUAGACAGUCAUCUUCAAAUGUACUGUCCGCCCCUUGCCUGGAGACAGUUCUUCCCAUUUUAAACAAACAAACAAAAUUUAAGGCGUUUAUGGAAUUCUCGGGUGCCAA` — result for “RBNS enrichment (R)”: 0.627.
For `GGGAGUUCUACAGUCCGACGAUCUAAAAUUAGAGCAAAUACAUUGGCAAUACAGCUGCUUUUGCUCUGAGCUACAAUCAUGGCUUUUCAUGUUACUUACCAAGUGGUGUUUCUGGUUAGGAAUCACAGCUGUAUGGAAUUCUCGGGUGCCAA`, “RBNS enrichment (R)” read 0.285.
Under “RBNS enrichment (R)”, `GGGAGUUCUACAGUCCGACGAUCUUUUUAGAUGGUAUGCUCUUGAUUGAAAUAUAUUCUCACUUUUACCAGGUUAAACAUUUGGAAUCUUAUAAUGUUACUUGCUUUUUGAUAGAUAAUAGUGAAAUAAAUUCUGGAAUUCUCGGGUGCCAA` is recorded as 0.514.
`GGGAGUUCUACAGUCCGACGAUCCCAGCACUGCUUGAGGAAAACAAGCAUUCACAACUUGUUUUUGGUUUUUAAAACCCAGUCCACAAAAUAACCAAUCCUGGACAUGAAGAUUCUUUCCCAAUUCACAUCUAUGGAAUUCUCGGGUGCCAA` — result for “RBNS enrichment (R)”: 0.631.
For `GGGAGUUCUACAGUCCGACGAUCUUUUUCUUUUCUCAACCAUUACGGUUUAUCUUUUUUUAAUGCAGAUAGUUAAAAUUUCACUGCCAGGUUUCUUCUGCCCACCCAAAAGAUCCAGUCUAUAAUUACAGAUUUGGAAUUCUCGGGUGCCAA`, “RBNS enrichment (R)” read 1.01.

Series 3 — method: aptamer microarray, sandwich; form: DNA with 2'F-ANA; medium: in vitro; tested at: 200 nM; with: Cy3 exosite-II aptamer, 400 nM; direction: higher = stronger binding; strand: GGTTGGTGTGGTTGG
Target: Prothrombin, mature alpha-thrombin (F2, Homo sapiens, UniProt P00734)
Notes: whole 15-mer aptamer, many near background
For `2'F-ANA at 2 3 4 6 7 8 9 10 12 13 15`, “mean fluorescence intensity” read 213 a.u.
`2'F-ANA at 1 2 4 9 15` — result for “mean fluorescence intensity”: 127 a.u.
`2'F-ANA at 1 2 7 8 9 12 13`: “mean fluorescence intensity” 314 a.u.
Under “mean fluorescence intensity”, `2'F-ANA at 1 4 7 10 12 14 15` is recorded as 59.5 a.u.
`2'F-ANA at 4 5 6 12` — result for “mean fluorescence intensity”: 174 a.u.
Under “mean fluorescence intensity”, `2'F-ANA at 2 4 7 9 10 13 15` is recorded as 73.6 a.u.
`2'F-ANA at 1 4 6 10 11 14 15` — result for “mean fluorescence intensity”: 79.1 a.u.
`2'F-ANA at 4 5 6 9 14 15` — result for “mean fluorescence intensity”: 56.4 a.u.
Under “mean fluorescence intensity”, `2'F-ANA at 1 3 4 6 7 9 12 13` is recorded as 215 a.u.
`2'F-ANA at 1 2 6 9 12 14` — result for “mean fluorescence intensity”: 58.6 a.u.
`2'F-ANA at 5 11 13 14`: “mean fluorescence intensity” 42 a.u.
`2'F-ANA at 2 4 7`: “mean fluorescence intensity” 396 a.u.
`2'F-ANA at 3 5 7 8 9 10 11 12 15` — result for “mean fluorescence intensity”: 72.2 a.u.
Under “mean fluorescence intensity”, `2'F-ANA at 2 5 6 7 10 12 13` is recorded as 51.1 a.u.
`2'F-ANA at 1 2 4 6 10 12 13 15` — result for “mean fluorescence intensity”: 53 a.u.
For `2'F-ANA at 2 3 4 6 8 9 10 11 14 15`, “mean fluorescence intensity” read 155 a.u.
For `2'F-ANA at 2 3 5 7 8 9 10 14 15`, “mean fluorescence intensity” read 56.4 a.u.
For `2'F-ANA at 1 2 4 5 7 9 10 11 13`, “mean fluorescence intensity” read 48.3 a.u.
For `2'F-ANA at 1 4 5 6 7 8 12 15`, “mean fluorescence intensity” read 134 a.u.
Under “mean fluorescence intensity”, `2'F-ANA at 5 6 7 8 9 10 11 14` is recorded as 48 a.u.
`2'F-ANA at 2 3 4 6 10 11 13 15` — result for “mean fluorescence intensity”: 168 a.u.
Under “mean fluorescence intensity”, `2'F-ANA at 2 5 7 11 12 13` is recorded as 98.7 a.u.

Series 4 — method: DHFR PCA, deep sequencing; medium: yeast; with: (+)-ABA 710 µM; baseline: wild-type fitted maximum; direction: higher = stronger binding
Target: ABI1, truncated, D143A, DHFR fusion (Arabidopsis thaliana)
Notes: methotrexate growth selection, single substitutions
Parent: PYL1, truncated, DHFR fusion (Arabidopsis thaliana); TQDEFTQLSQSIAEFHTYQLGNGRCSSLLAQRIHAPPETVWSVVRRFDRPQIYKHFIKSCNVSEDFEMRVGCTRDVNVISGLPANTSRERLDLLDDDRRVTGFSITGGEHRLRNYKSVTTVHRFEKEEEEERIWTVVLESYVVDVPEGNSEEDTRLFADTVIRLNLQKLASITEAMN
Under “relative binding score”, `C60N` is recorded as 38.3%.
Under “relative binding score”, `T1W` is recorded as 95%.
`V70Y`: “relative binding score” 77.5%.
`T6L`: “relative binding score” 106%.
Under “relative binding score”, `V78T` is recorded as 102%.
Under “relative binding score”, `R46C` is recorded as 101%.
`F15A` — result for “relative binding score”: 76.8%.
`R163G` — result for “relative binding score”: 91.2%.
Under “relative binding score”, `L28R` is recorded as 96%.
`R69V`: “relative binding score” 100%.
`E67K` — result for “relative binding score”: 99.8%.
Under “relative binding score”, `Q2N` is recorded as 102%.
`V40E` — result for “relative binding score”: -26.1%.
`P146S`: “relative binding score” 81.4%.
`H122V`: “relative binding score” 70.4%.
`C25H` — result for “relative binding score”: 69.2%.
For `P146R`, “relative binding score” read 43.4%.
`R49C`: “relative binding score” 97.8%.
For `P83R`, “relative binding score” read 1.97%.
`A170F`: “relative binding score” 19.4%.
Under “relative binding score”, `F103G` is recorded as -3.1%.
For `D48Y`, “relative binding score” read 57.4%.
For `E128M`, “relative binding score” read 103%.
Under “relative binding score”, `R45Y` is recorded as 26.4%.

Series 5 — method: protein binding microarray; form: double-stranded DNA, one strand shown; medium: in vitro; tested at: not given; baseline: not given; direction: higher = stronger binding
Target: Histone acetyltransferase KAT6A, winged helix 2, GST fusion (KAT6A, Homo sapiens, UniProt Q92794, residues 85-181)
Notes: 8-mer, flanks averaged, mean of 2 arrays, mostly near background
Construct (chain): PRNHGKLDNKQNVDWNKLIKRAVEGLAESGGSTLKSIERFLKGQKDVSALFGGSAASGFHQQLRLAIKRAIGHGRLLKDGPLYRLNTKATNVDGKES
`AAAGGGTG` gave an E-score of -0.041.
`CCGCACAG` gave an E-score of 0.138.
`GCTACGCC` has an E-score of 0.0717.
`CGAACTAG` gave an E-score of -0.0819.
`ATAACCGG` gave an E-score of -0.18.
With `CCGATCCG` the E-score was 0.115.
The E-score of `GGTAATTA` is reported as -0.0839.
For `CATGAATA`, the E-score was -0.193.
For `CGTCGTCA`, the E-score was -0.0354.
`ATCCTGAG` has an E-score of 0.0173.
`CAGCGAGG` has an E-score of 0.00564.
For `CTTCGATA`, the E-score was 0.079.
`GTCTGTTA` gave an E-score of -0.0845.
`CCACTGGC` has an E-score of 0.203.
With `TCGCAAGA` the E-score was -0.117.
For `CTTTTGCA`, the E-score was 0.116.
The E-score of `CGGTGGGC` is reported as 0.0918.
For `GATCCATA`, the E-score was 0.0152.
For `GTACGATA`, the E-score was -0.101.
`CTTACTCA` has an E-score of -0.0855.
`AGGATGAA` gave an E-score of -0.00541.
With `AAGAACTC` the E-score was 0.0913.
`ACCACGCC` gave an E-score of -0.0639.
`CCCATAGC` gave an E-score of -0.0782.
The E-score of `GATCAAAC` is reported as -0.074.

For quick reference, copied from above (series 3):
Under “mean fluorescence intensity”, `2'F-ANA at 2 4 7 9 10 13 15` is recorded as 73.6 a.u.
For `2'F-ANA at 1 2 4 5 7 9 10 11 13`, “mean fluorescence intensity” read 48.3 a.u.
`2'F-ANA at 1 2 4 9 15` — result for “mean fluorescence intensity”: 127 a.u.
`2'F-ANA at 1 4 6 10 11 14 15` — result for “mean fluorescence intensity”: 79.1 a.u.
`2'F-ANA at 2 4 7`: “mean fluorescence intensity” 396 a.u.
Under “mean fluorescence intensity”, `2'F-ANA at 2 5 7 11 12 13` is recorded as 98.7 a.u.
`2'F-ANA at 1 2 7 8 9 12 13`: “mean fluorescence intensity” 314 a.u.
